Measured values collected from several papers.
Parts stem from different laboratories: compare values within a part only. Positions count from the first letter of the parent shown.

Study 1 — method: protein-binding microarray; molecule type: double-stranded DNA, one strand shown; sample: in vitro; concentration: not given; direction: higher = stronger binding
Target: Transcription factor SOX-2, HMG box (SOX2, Homo sapiens, UniProt P48431, residues 19-118)
UniProt P48431, sequence (19-118, looked up): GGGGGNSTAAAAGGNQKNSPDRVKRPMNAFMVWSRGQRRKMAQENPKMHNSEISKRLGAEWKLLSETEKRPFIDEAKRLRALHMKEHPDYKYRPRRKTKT
Setting: k-mer, scored over probes, only values ≥0.25
| Oligonucleotide | E-score |
| --- | --- |
| AATATAA | 0.314 |
| AATAGCA | 0.267 |
| ATATTAA | 0.304 |
| TAGAGAA | 0.253 |
| ATGATTG | 0.337 |
| AAAATTA | 0.299 |
| GAAATAA | 0.25 |
| AATTGAC | 0.375 |

Study 2 — method: RNA Bind-n-Seq; molecule type: RNA; sample: in vitro; concentration: not given; baseline: input RNA pool; direction: higher = stronger binding
Target: RING finger protein unkempt homolog, zinc fingers 1-6, GST-SBP tag (UNK, Homo sapiens, UniProt Q9C0B0, residues 30-357)
UniProt Q9C0B0, sequence (30-357, looked up): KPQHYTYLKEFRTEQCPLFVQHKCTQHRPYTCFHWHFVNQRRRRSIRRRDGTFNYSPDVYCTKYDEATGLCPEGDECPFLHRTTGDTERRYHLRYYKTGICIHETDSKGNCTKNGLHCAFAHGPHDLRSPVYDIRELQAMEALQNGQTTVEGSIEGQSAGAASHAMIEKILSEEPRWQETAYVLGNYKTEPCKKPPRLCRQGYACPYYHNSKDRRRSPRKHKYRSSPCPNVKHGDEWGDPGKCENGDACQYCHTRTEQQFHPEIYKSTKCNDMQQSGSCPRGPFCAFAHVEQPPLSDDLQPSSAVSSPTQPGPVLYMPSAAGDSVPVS
Setting: RNA with constant flanks, human and mouse sites, ends assumed
Shared flanks, not repeated: GGGAGUUCUACAGUCCGACGAUC … CAACAGAGGAUUGAGCAUCA
| Oligonucleotide | bound/input enrichment [ratio] |
| --- | --- |
| GUUUAUCAGCCUUCAGUUGAAACAUACAAUCAGCUGUUGCAUCUUGCUUCUGAGCAAGGUAGUUUUGAUGGUGGGGACCAAGGCAUACUGAACACAUUUUUUAGCAGCUGGGCAACAACA | 0.559 |
| UUGACUCUCCUCUUUACAGAGCUAGCAAAAGUAAUAGAGAGCUCUGCAAAGGGUUUCCCUAGUUUUAUCUCUGAUAUGCUGUCUAAGUGCAAAGUUCAGAAAGUGAUUCUUCAUUGUUUG | 7.79 |
| AUUGCUGUCACCACCAUCGACAAUAUUGGUGCUGGUGUGAUCCAGCCAGGCCGAGGUUUUGUUCUUUAUCCAGUGAAAUACAAAGCUAUUGUUUUCCGGCCCUUUAAAGGUGAAGUGGUG | 0.238 |
| GAUCGGACUUGUGAAUUAUCUAGAAGAAAUUGUCUGCUGUCCUUUUCUAAUCCGGUGAAUUUAGAUGCCUCCGAAGACAAGGACAGCCCUUUCGGUAAUGGUCAAUCCAAUUUUUCUGAG | 0.155 |
| GGGGACCCGGAGCUGCAGCCCAUCCGGAGCUAUGAGAUCGCCAGCUUGGUCCGCACACUCUUUAGGCUGUCGUCUGCCAUCAACCACAGAUUUGCAGGACAGAUGGCGGCUCUGUGUUCC | 0.114 |
| AAGGGGGAGGUCCCCCCCAAGGAGACCCCCAAGAAGAAGAAGAAAUUCUCUUUCAAGAAGCCUUUCAAAUUGAGCGGCCUGUCCUUCAAGAGAAAUCGGAAGGAGGGUGGGGGUGAUUCU | 0.304 |
| GUGUCAUUUGGGGACACGCCACUGACACAGAGCAUCCAGGCCAAUGUGACGGUGGCCCCCGAGCGCCUGGUGCCCAUCAUUGAGGGUGGCUCAUACCGCGUGUGGUCAGACACACGGGAC | 0.128 |
| UUUCCUCACAAAUGUGAAGUCUGUGAUAAAGGUUUUCAUCGUCCUUCAGAGCUUAAAAAACAUAGUGAUAUUCAUAAGGGUAGGAAGAUUCACCAGUGUAGGCAUUGUGACUUUAAAACC | 0.686 |

Study 3 — method: RNA Bind-n-Seq; molecule type: RNA; sample: in vitro; concentration: 20 nM; setting: 6-mer, flanks averaged, single round; with: 150 mM LiCl; baseline: input library; direction: higher = stronger binding
Target: TAR DNA-binding protein 43, full length, His tag (TARDBP, Homo sapiens, UniProt Q13148, residues 1-414)
| Oligonucleotide | 6-mer enrichment (R) |
| --- | --- |
| GGGGCC | 1.26 |
| GAGCAG | 1.03 |
| CCCAGG | 0.991 |
| AGCUAA | 0.844 |
| AUCUGA | 0.782 |
| AGGCAC | 0.911 |
| GGGAGC | 1.14 |
| ACGUUG | 0.947 |

Study 4 — target: tungstate, free oxyanion; method: microfluidic competitive inhibition; sample: in vitro, cell-free expressed; concentration: not given; direction: lower = stronger binding
Setting: derived from inhibition constants, unchanged parent 2230 nM
Starting sequence: PafA, mature enzyme, eGFP fusion (Elizabethkingia meningoseptica, UniProt Q9KJX5); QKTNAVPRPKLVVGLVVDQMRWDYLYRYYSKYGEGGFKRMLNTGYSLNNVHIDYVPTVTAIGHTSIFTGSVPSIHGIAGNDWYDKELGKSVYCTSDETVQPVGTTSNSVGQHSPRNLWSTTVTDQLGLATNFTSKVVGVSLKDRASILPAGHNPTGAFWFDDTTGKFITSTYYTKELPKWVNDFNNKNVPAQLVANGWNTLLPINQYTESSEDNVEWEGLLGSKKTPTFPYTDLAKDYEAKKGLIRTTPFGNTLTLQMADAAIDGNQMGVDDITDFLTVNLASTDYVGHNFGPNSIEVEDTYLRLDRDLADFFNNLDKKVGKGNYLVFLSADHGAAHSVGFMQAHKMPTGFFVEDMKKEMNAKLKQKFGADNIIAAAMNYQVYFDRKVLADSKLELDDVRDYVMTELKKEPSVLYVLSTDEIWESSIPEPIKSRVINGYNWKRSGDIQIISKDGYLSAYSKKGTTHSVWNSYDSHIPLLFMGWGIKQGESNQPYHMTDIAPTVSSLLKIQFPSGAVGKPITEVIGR
| Substitution | oxyanion analog dissociation constant |
| --- | --- |
| V468G | 1.11 µM |
| N49V | 1.71 µM |
| L15G | 1.7 µM |
| I61V | 1.96 µM |
| A376G | 2.09 µM |

Study 5 — target: CCNA2, cyclin fold, Cln2 fusion (human); method: yeast growth competition, sequencing; sample: yeast; setting: strong parent motif; baseline: not given; direction: higher = stronger binding
Starting sequence: viral docking peptide; YKVKRRLVFGADD; partner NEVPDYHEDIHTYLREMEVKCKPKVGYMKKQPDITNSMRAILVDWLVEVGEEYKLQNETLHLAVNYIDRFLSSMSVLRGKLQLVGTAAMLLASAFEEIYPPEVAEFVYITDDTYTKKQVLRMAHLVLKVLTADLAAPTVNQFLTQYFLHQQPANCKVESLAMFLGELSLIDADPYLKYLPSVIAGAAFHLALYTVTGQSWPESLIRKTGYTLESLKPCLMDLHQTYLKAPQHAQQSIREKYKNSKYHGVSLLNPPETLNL
| Substitution | normalised enrichment score |
| --- | --- |
| YKVKRRLIFGADD [V8I] | 6.27 |
| YKVVRRLVFGADD [K4V] | 5.33 |
| YKVQRRLVFGADD [K4Q] | 6 |
| YKVKRNLVFGADD [R6N] | 3.03 |
| YKVKRRLVFGADA [D13A] | 6.42 |
| YKVKRRNVFGADD [L7N] | 0.679 |
| YKVYRRLVFGADD [K4Y] | 5.71 |
| YKVKRRLVFGAYD [D12Y] | 5.86 |
| YKVKMRLVFGADD [R5M] | 3.93 |
| YKVKRRLVFMADD [G10M] | 5.99 |
| YKVKRRLTFGADD [V8T] | 6.15 |
| YKVKRALVFGADD [R6A] | 5.68 |
| YKPKRRLVFGADD [V3P] | 5.84 |
| YKVKRRLCFGADD [V8C] | 6.66 |
| YKVKRRLVFGAFD [D12F] | 6.14 |
| YKVKRRLVFGAID [D12I] | 6.39 |
| YKVKRRLDFGADD [V8D] | 7 |
| YEVKRRLVFGADD [K2E] | 5.65 |
| YKVKRDLVFGADD [R6D] | 0.653 |
| YKVKDRLVFGADD [R5D] | 0.222 |
| YKVKRRLVFNADD [G10N] | 6.42 |
| YKVKRRLVFPADD [G10P] | 6.28 |
| YKVKRWLVFGADD [R6W] | 1.62 |
| YKVKRRLVFKADD [G10K] | 6.37 |
| YKVKRRLVLGADD [F9L] | 4.67 |

Repeated from above (study 2):
| Oligonucleotide | bound/input enrichment [ratio] |
| --- | --- |
| GUUUAUCAGCCUUCAGUUGAAACAUACAAUCAGCUGUUGCAUCUUGCUUCUGAGCAAGGUAGUUUUGAUGGUGGGGACCAAGGCAUACUGAACACAUUUUUUAGCAGCUGGGCAACAACA | 0.559 |
| UUGACUCUCCUCUUUACAGAGCUAGCAAAAGUAAUAGAGAGCUCUGCAAAGGGUUUCCCUAGUUUUAUCUCUGAUAUGCUGUCUAAGUGCAAAGUUCAGAAAGUGAUUCUUCAUUGUUUG | 7.79 |
| AUUGCUGUCACCACCAUCGACAAUAUUGGUGCUGGUGUGAUCCAGCCAGGCCGAGGUUUUGUUCUUUAUCCAGUGAAAUACAAAGCUAUUGUUUUCCGGCCCUUUAAAGGUGAAGUGGUG | 0.238 |
| GAUCGGACUUGUGAAUUAUCUAGAAGAAAUUGUCUGCUGUCCUUUUCUAAUCCGGUGAAUUUAGAUGCCUCCGAAGACAAGGACAGCCCUUUCGGUAAUGGUCAAUCCAAUUUUUCUGAG | 0.155 |
| GGGGACCCGGAGCUGCAGCCCAUCCGGAGCUAUGAGAUCGCCAGCUUGGUCCGCACACUCUUUAGGCUGUCGUCUGCCAUCAACCACAGAUUUGCAGGACAGAUGGCGGCUCUGUGUUCC | 0.114 |
| AAGGGGGAGGUCCCCCCCAAGGAGACCCCCAAGAAGAAGAAGAAAUUCUCUUUCAAGAAGCCUUUCAAAUUGAGCGGCCUGUCCUUCAAGAGAAAUCGGAAGGAGGGUGGGGGUGAUUCU | 0.304 |
| GUGUCAUUUGGGGACACGCCACUGACACAGAGCAUCCAGGCCAAUGUGACGGUGGCCCCCGAGCGCCUGGUGCCCAUCAUUGAGGGUGGCUCAUACCGCGUGUGGUCAGACACACGGGAC | 0.128 |
| UUUCCUCACAAAUGUGAAGUCUGUGAUAAAGGUUUUCAUCGUCCUUCAGAGCUUAAAAAACAUAGUGAUAUUCAUAAGGGUAGGAAGAUUCACCAGUGUAGGCAUUGUGACUUUAAAACC | 0.686 |
